Measured values gathered from unrelated publications.
± marks the error that the study gave.

Molecule | assay | test system | setting | scale | measurement | value
CCCCCCCC[N+](C)(C)CCCCCCCC | in vitro-in vivo extrapolation | human |  |  | hepatic clearance | 3.23 mL/h/g liver
CCc1cc(O)ccc1-c1ccc2c(-c3nc4c([nH]3)CN(C(C)C)[C@H](C(=O)N3CC(N(C)C)C3)C4)n[nH]c2c1 |  | human, plasma | inhalation, 10 mg, single dose, geometric mean |  | t1/2 | 24.4 h
CCCCCCCCCC[N+](C)(C)C | in vitro-in vivo extrapolation | human |  |  | hepatic clearance | 0.67 mL/h/g liver
Oc1cccc2ccccc12 | fish short-term reproduction | Oryzias latipes, female, water, flow-through | 258 µg/L, end of exposure |  | body length | 39 ± 0.3 mm
CSCC[C@@H]1NC(=O)[C@H](CC(=O)O)NC(=O)CNC(=O)[C@H](CCCNC(=N)N)NC(=O)[C@H](C)NC(=O)[C@H](CCC(=O)O)NC(=O)[C@H](CCCNC(=N)N)NC(=O)[C@@H]2CSSC[C@@H]3NC(=O)[C@H](CO)NC(=O)[C@H]([C@@H](C)O)NC(=O)[C@@H]4CCCN4C(=O)[C@H](C)NC(=O)[C@H](Cc4c[nH]c5ccccc45)NC(=O)[C@H](CC(=O)O)NC(=O)CNC(=O)[C@H](CCCNC(=N)N)NC(=O)CNC(=O)[C@H](CCC(N)=O)NC(=O)[C@@H]4CCCN4C(=O)[C@@H](NC(=O)CNC(=O)C(C)F)CSSC[C@H](NC(=O)CNC(=O)[C@H](C)NC(=O)[C@H](CC(C)C)NC(=O)[C@H](CSSC[C@@H](C(=O)NCC(N)=O)NC(=O)[C@H]([C@@H](C)O)NC(=O)[C@H](CCCNC(=N)N)NC(=O)[C@@H]4CCCN4C1=O)NC(=O)[C@H](CC(=O)O)NC(=O)[C@H](CO)NC(=O)[C@H](CC(=O)O)NC(=O)[C@H](CCC(N)=O)NC(=O)[C@H](CO)NC3=O)C(=O)N[C@@H](C(C)C)C(=O)N2 (some centres unmarked) [fluorine-18 labelled] |  | nude mouse, U-87 MG xenograft, brain | intravenous, 2.5 h, together with: cyclo(RGDyK) co-injected |  | tissue uptake | 0.09 ± 0.01 %ID/g
O=C(Nc1cc(Cl)cc2cccnc12)c1ccc([N+](=O)[O-])s1 |  |  |  |  | kinetic solubility | ≤ 0.06 µM
CC1N=C(c2ccccc2F)c2cc(Nc3ccccc3)ccc2NC1=O (centres unmarked) | shake flask | PBS | 24 h, pH 7.4 |  | solubility | 2.17 µM
CN[C@@](C)(C[18F])C(=O)O |  | SCID mouse A549 xenograft, lung | 60 min, post injection |  | tissue uptake | 2.1 ± 0.4 %ID/g
O=C(OC(C(F)(F)F)C(F)(F)F)N1CCN(Cc2ccc(C(F)(F)F)cc2N2CCCC2)CC1 |  | PBS | 20 h, pH 7.4, 20 °C |  | solubility | < 1 µg/mL
CC(=O)c1c(O)c(C)c(O)c(Cc2c(O)c3c(c(C(=O)/C=C/c4ccccc4)c2O)OC(C)(C)C=C3)c1O |  | Balb/C mice, male, plasma | oral and intravenous |  | half-life | > 2 h
CCCCCOc1ccc(-c2ccc(-c3ccc(C(=O)N[C@H]4C[C@@H](O)[C@@H](O)NC(=O)[C@@H]5[C@@H](O)[C@@H](C)CN5C(=O)[C@H]([C@@H](C)O)NC(=O)[C@H]([C@H](O)[C@@H](O)c5ccc(O)cc5)NC(=O)[C@@H]5C[C@@H](O)CN5C(=O)[C@H]([C@@H](C)O)NC4=O)cc3)cc2)cc1 |  | human neonates, plasma | intravenous, 3 mg/kg loading dose, 24 h |  | trough concentration | 1900 ng/mL
H-HGLASTLTRWAHYNALIRAFGGG-NH2 (C-amide) | RP-HPLC | rat serum | 37 °C |  | time to onset of degradation | 1 h
COC(=O)N[C@H](C(=O)N1CCC[C@H]1C(=O)Nc1ccc([C@@H]2CC[C@@H](c3ccc(NC(=O)[C@@H]4CCCN4C(=O)[C@@H](NC(=O)OC)C(C)C)cc3)N2c2ccc(C(C)(C)C)cc2)cc1)C(C)C |  | healthy volunteers | oral, dose not given, without digoxin |  | AUCtau | 1430 ng·h/mL
COc1ccc(-c2cc(=O)c3c(OC)c(OC)c(OC)cc3o2)cc1 |  | C57BL/6 mouse, male, feces | oral, 1% w/w in diet, 6 weeks, orange peel extract diet | baseline: content in orange peel | tissue to peel content ratio | 42.8%
O=C(NCCS)c1cccc(C(=O)NCCS)c1 |  | rat, Sprague-Dawley, male, plasma | intravenous, 1 mg/kg, 1 h |  | plasma concentration | 184 ng/mL
CC[C@H](C)[C@H](NC(=O)[C@H](CCCCN)NC(=O)[C@H](CCCCN)NC(=O)[C@H](CC(C)C)NC(=O)[C@@H](NC(=O)[C@H](CCCCN)NC(=O)[C@H](C)NC(=O)[C@H](C)NC(=O)[C@@H](NC(=O)CNC(=O)[C@H](C)NC(=O)[C@@H](NC(=O)[C@@H](NC(=O)[C@@H]1CCCN1C(=O)[C@H](Cc1ccccc1)NC(=O)[C@@H](N)Cc1ccccc1)[C@@H](C)CC)C(C)C)C(C)C)C(C)C)C(=O)N[C@@H](Cc1ccccc1)C(=O)N[C@H]1CSSC[C@@H](C(=O)O)NC(=O)[C@H](CCCCN)NC(=O)[C@H](CCCCN)NC(=O)[C@H](CO)NC(=O)[C@H]([C@@H](C)CC)NC(=O)[C@H]([C@@H](C)O)NC1=O | haemolysis | horse erythrocytes | 2 h, 37 °C |  | HC10 | 8.28 µM
Cc1sc2c(c1C)C(c1ccc(Cl)cc1)=N[C@@H](CC(=O)OC(C)(C)C)c1nnc(C)n1-2 |  | Ringer's with 10% beta-cyclodextrin | time not given, plastic vessel, glass vial | baseline: nominal 50 ng/mL | recovery | 91%
CCCCCOc1ccc(-c2cc(-c3ccc(C(=O)N[C@H]4C[C@@H](O)[C@@H](O)NC(=O)[C@@H]5[C@@H](O)[C@@H](C)CN5C(=O)[C@H]([C@H](O)CC(N)=O)NC(=O)[C@H]([C@H](O)[C@@H](O)c5ccc(O)c(OS(=O)(=O)O)c5)NC(=O)[C@@H]5C[C@@H](O)CN5C(=O)[C@H]([C@@H](C)O)NC4=O)cc3)no2)cc1 |  | human paediatric patients 6 to sample C years, plasma | intravenous, 3 mg/kg once daily, day 7, geometric mean |  | steady-state clearance | 7 mL/min
CC(C)N(CCCCOCC(=O)NS(C)(=O)=O)c1cnc(-c2ccccc2)c(-c2ccccc2)n1 |  | human, PAH patients, plasma | oral, population PK estimate |  | absorption lag time | 0.67 h
[123I]c1cncc(OC[C@@H]2CCN2)c1 | SPECT | human, head of caudate nucleus | intravenous bolus, 2.1 mCi | baseline: tissue over plasma | tissue/plasma ratio | 14
NC(=O)c1nc(F)c[nH]c1=O | UV-Vis spectrophotometry | supercritical CO2 | 120 min, 338 K, 21 MPa, 709.69 kg/m^3 |  | solubility | 995 µg/mL
CS(=O)(=O)CCCn1c(Cn2c(=O)n(CC(F)(F)F)c3ccncc32)cc2cc(Cl)ccc21 |  | RSV-infected infants | dose not given, mid dose cohorts |  | serious adverse events | 8%
CC(=O)c1c(C)c2cnc(Nc3ccc(N4CCNCC4)cn3)nc2n(C2CCCC2)c1=O |  | Japanese patients, advanced solid tumours | once daily 3 weeks on 1 off |  | maximum tolerated dose | 125 mg

Repeated from above:
Molecule | assay | test system | setting | scale | measurement | value
O=C(NCCS)c1cccc(C(=O)NCCS)c1 |  | rat, Sprague-Dawley, male, plasma | intravenous, 1 mg/kg, 1 h |  | plasma concentration | 184 ng/mL
CCc1cc(O)ccc1-c1ccc2c(-c3nc4c([nH]3)CN(C(C)C)[C@H](C(=O)N3CC(N(C)C)C3)C4)n[nH]c2c1 |  | human, plasma | inhalation, 10 mg, single dose, geometric mean |  | t1/2 | 24.4 h
Cc1sc2c(c1C)C(c1ccc(Cl)cc1)=N[C@@H](CC(=O)OC(C)(C)C)c1nnc(C)n1-2 |  | Ringer's with 10% beta-cyclodextrin | time not given, plastic vessel, glass vial | baseline: nominal 50 ng/mL | recovery | 91%
